Measurements pooled from the literature.
Lines come from different studies, so protocols differ. ± gives the spread as reported. Converted amounts (≈) assume the structure as drawn.

SMILES = N#C[C@@]1(c2ccc3c(N)ncnn23)O[C@H](CO)[C@@H](O)[C@H]1O; test = plasma protein binding; system = monkey plasma; conditions = 10 µM, time not given; endpoint = recovery; result = 93.6%
SMILES = CCc1ccc(-c2ccc(-c3cc(F)c(F)c(F)c3)c(F)c2)cc1; system = rat, placenta; conditions = 1000 ng/mL in perfusate, middle dose, mixture of 21 LCMs; endpoint = median placental accumulation; result = 4.9 ng/g
SMILES = C[C@H]1CN(C(=O)CC#N)[C@]12CCN(c1ncnc3[nH]ccc13)C2; test = IL-4 secretion; system = human whole blood; conditions = blood/plasma ratio corrected; endpoint = IC20; result = 10 ng/mL
SMILES = O=C(Nc1nc2cccc(-c3ccc(CN4CCS(=O)(=O)CC4)cc3)n2n1)C1CC1; test = measured: abdominal discomfort; system = rheumatoid arthritis patients; conditions = oral, 100 mg twice daily, 4 weeks; endpoint = patients with TEAE; result = 8.3%
SMILES = O=C(OC(C(F)(F)F)C(F)(F)F)N1CCN(Cc2cccc(Oc3ccccc3)c2)CC1; test = PET blocking study; system = rhesus monkey, brain OCC; conditions = 0.01 mg/kg, compound pretreatment, with: [18F]T-401 tracer; endpoint = Ktrans; result = 0.0013 min⁻¹
SMILES = CCn1c(SCC(=O)Nc2ccccc2OC)nnc1-c1c[nH]c2ccccc12; system = aqueous buffer; conditions = pH 7.4; endpoint = thermodynamic solubility; result = < 5.36 µM
SMILES = CCCC1CCC(c2ccc(OCC)c(F)c2F)CC1 (centres unmarked); system = rat, placenta; conditions = 5000 ng/mL in perfusate, high dose, mixture of 21 LCMs; endpoint = median placental accumulation; result = 246 ng/g
SMILES = O=C(N[C@H](Cc1c[nH]c2ccccc12)C(=O)Nc1ccncc1)c1ccc(-c2cc(C(F)(F)F)ccc2F)cc1F; system = Swiss Webster mouse, female, intestine; conditions = oral, 50 mg/kg, 8 h, 20% HPβCD vehicle; endpoint = concentration; result = 2140 nM
SMILES = c1csc(CNc2cc[nH]n2)c1; test = alkaline comet; system = Hsd:ICR(CD-1) mice, male, liver; conditions = oral, 250 mg/kg/day, 3 days; endpoint = tail DNA; result = 1.71%
SMILES = C=CCN1CC(=O)N2[C@@H](Cc3ccc(O)cc3F)C(=O)N(Cc3cccc(N4CC(N5CCN(CC)CC5)C4)n3)C[C@@H]2N1C(=O)NCc1ccccc1; system = advanced solid tumour patients; conditions = oral, 80 mg twice daily, grade ≥3, dose-escalation; endpoint = treatment-related diarrhoea; result = 0%
SMILES = NC(=O)N1c2ccccc2C=Cc2ccccc21; test = measured: general and administration site (SOC); system = human male; conditions = oral, dose not given, CTCAE on-treatment AEs; endpoint = adverse events incidence; result = 27%
SMILES = CNCc1ccc(-c2[nH]c3cc(F)cc4c3c2CCNC4=O)cc1; system = human patients; conditions = oral, 240 mg twice daily, all grades; endpoint = nausea incidence; result = 0%
SMILES = Cn1cc(Nc2nccc(-c3ccc4c(c3)CN(C3COC3)CC[C@H]4NC(=O)c3cn(C(C)(C)C)nn3)n2)cn1; system = human, whole blood; conditions = 300 mg twice daily, day 14; how to read = baseline: pre-dose baseline; endpoint = class-switched memory B cell change; result = 51%
SMILES = CCOc1c([C@H](C)n2nc(C)c3c(N)ncnc32)cc(Cl)c(F)c1[C@@H]1CNC(=O)C1; system = patients, monotherapy; conditions = oral, 30 mg once daily, cycle 1 day 15; endpoint = Cmax geometric mean; result = 3270 nM
SMILES = O=c1[nH]c(=O)n([C@@H]2O[C@H](CO)[C@@H](O)[C@@H]2F)cc1CCCCC[18F]; test = PET; system = mice, RG2 tumour xenograft, tumour; conditions = dose not given; endpoint = time to peak radioactivity; result = ~8 min
SMILES = Cc1ccc(Sc2ccccc2N2CCNCC2)c(C)c1; test = measured: blood creatine phosphokinase increased; system = healthy adult men; conditions = oral, 20 mg daily, 12 days; endpoint = participants with TEAE; result = 0%
SMILES = CCN1CCN(Cc2ccc(NC(=O)c3ccc(C)c(NC(=O)c4cncc(-c5cccs5)c4)c3)cc2C(F)(F)F)CC1; system = C57BL/6 mice, epithelial lining fluid; conditions = intraperitoneal, 20 mg/kg; endpoint = extrapolated AUC share; result = 5.24%
SMILES = CNc1ccc(-c2nc3ccc(O)cc3s2)cc1 [carbon-11 labelled]; test = ex vivo biodistribution; system = APP/PS1 mouse, AD model, eyes; conditions = intravenous, 30 min; endpoint = SUV; result = 0.574 ± 0.258
SMILES = Cc1nc2cccc(OCC(C)(C)C(=O)NC(C)C)c2c(N)c1C(=O)O; system = Swiss albino CD-1 mouse; conditions = oral, 1000 mg/kg, 36 h; endpoint = mean body weight change; result = 2.9 ± 0.6 g
SMILES = COc1cc(-c2[o+]c3cc(O)cc(O)c3cc2O[C@@H]2O[C@H](CO)[C@@H](O)[C@H](O)[C@H]2O)cc(O)c1O; test = CIELAB from visible spectra; system = aqueous buffer; conditions = 50 µM, pH 7, ±BSA 600 µM or lysozyme 1000 µM; endpoint = hue angle; result = 347.72 ± 0.31 degrees
SMILES = NS(=O)(=O)OC[C@@H]1C[C@@H](n2ccc3c(N[C@H]4CCc5ccccc54)ncnc32)C[C@@H]1O; system = human, plasma; conditions = day 8 cycle 1, median, all dose levels, with: irinotecan and temozolomide; endpoint = clearance; result = 19.4 L/h/m2
SMILES = Cc1cc(-c2nccc3c2ccn3CC(=O)Nc2ccc(-c3cnccn3)cn2)ccn1; system = human; conditions = 15 mg once daily, multiple ascending dose; endpoint = medical device site dermatitis; result = 66.7%
SMILES = N#Cc1ccc2c(c1)[C@H]1CCCN(C(=O)c3ccc4[nH]cnc4c3)[C@H]1C2; system = human, male; conditions = 20 mg, end of trial; endpoint = androstenedione level; result = 9.5 nmol/L
SMILES = NC[C@H](NC(=O)c1ccc(-c2ccc(Br)cc2)cc1)C(=O)NO; system = aqueous buffer; conditions = pH 7.4; endpoint = thermodynamic solubility; result = < 7.14 µM
SMILES = O=C(COc1ccc(Cl)cc1)NC12CC(c3nnc([C@H]4C[C@@H](OC(F)(F)F)C4)o3)(C1)C2; test = postural dizziness; system = human, both sexes; conditions = oral, dose not given, single ascending dose, fasted, all doses; how to read = baseline: subjects; endpoint = treatment-emergent adverse events; result = 19.4%
SMILES = CN1C(=O)[C@@H](NC(=O)c2nnc(Cc3ccccc3)[nH]2)COc2cccnc21; test = phase I multiple ascending dose; system = human, male and female; conditions = oral, 100 mg, 14 days; endpoint = medical device site reaction incidence; result = 12.5%
SMILES = C[C@@H](N)C1CCN(S(=O)(=O)c2cccc3cnccc23)CC1; system = healthy volunteers; conditions = oral, 250 mg, single ascending dose, fasted; endpoint = incidence of syncope; result = 33.3%
SMILES = COc1ccc2[nH]c([S+]([O-])Cc3ncc(C)c(OC)c3C)nc2c1 (centres unmarked); system = healthy Chinese volunteers CYP2C19 PM, plasma; conditions = oral, 20 mg single dose, fasted; endpoint = AUC(0-t); result = 3800 ± 1600 ng·h/mL
SMILES = FC(F)(F)c1ccc(CNc2ccc(Cc3c[nH]c4ncc(Cl)cc34)cn2)cn1; test = measured: Pruritus; system = patients with advanced solid tumours, all cohorts; conditions = oral, 1000 mg/day, any grade; endpoint = treatment-related adverse events; result = 17%
SMILES = Cc1cccc(CNC(=O)c2cn(CCNC(=O)c3ccccc3Sc3c([N+](=O)[O-])ncn3C)c3cc4c(cc3c2=O)OC(F)(F)O4)n1; system = Sprague-Dawley rat, male, whole blood; conditions = intramuscular, 30 mg/kg of parent compound; endpoint = AUC(0-inf); result = 109 ng·h/mL
SMILES = CCNCCCNC/C=C\CNCCCNCC; test = LC-MS/MS; system = human cancer patients, plasma; conditions = intravenous infusion 60 min, 50 mg, median, cycle 1; endpoint = AUMC(0-inf); result = 325 ng·h²/mL
SMILES = CN(C(=O)n1cnc(-c2cccnc2)c1)C1CCCCC1; system = Wistar rat, medulla oblongata; conditions = oral, 10 mg/kg/day of BIA 10-2474, 48 h, repeated 5 days; endpoint = concentration; result = 7.3 ± 0.2 ng/g
SMILES = CN1C[C@H](COc2nccc3c(NCc4ccco4)cc(Cl)nc23)OC1=O; system = rat Crl:CD(SD) male; conditions = oral, 300 mg/kg, single dose; endpoint = general condition; result = negative
SMILES = CCCCC1=NC2(CCCC2)C(=O)N1Cc1ccc(-c2ccccc2S(=O)(=O)Nc2noc(C)c2C)c(COCC)c1; system = healthy adult volunteers, plasma; conditions = oral, 50 mg, 14 days repeated dosing, fasted, crushed tablet; endpoint = AUC(0-inf); result = 11900 ng·h/mL
SMILES = c1ccc(-c2nc(N3CCCC3c3ccccn3)c3ccccc3n2)nc1 (centres unmarked); system = Japanese Pharmacopoeia disintegration test solution 2; conditions = pH 6.8; endpoint = kinetic solubility; result = 90 µg/mL (≈ 255 µM)
SMILES = COc1cccc(OC)c1-c1cc(C(=O)NC2(C(=O)O)C3CC4CC(C3)CC2C4)nn1-c1ccc(C(=O)N(C)CCCN(C)CCCN(C)C(=O)CN2CCN(CC(=O)[O-])CCN(CC(=O)[O-])CCN(CC(=O)[O-])CC2)cc1C(C)C.[177Lu+3] (centres unmarked); system = mouse, HT-29 xenograft; conditions = 4 h post injection, biodistribution; how to read = baseline: tumour over muscle uptake; endpoint = tumour-to-muscle ratio; result = 13.3
SMILES = N#CCNC(=O)c1ccc(-c2ccnc(Nc3ccc(N4CCOCC4=O)cc3)n2)cc1; system = healthy volunteers, plasma; conditions = dose not given, with: rifampin multiple-dose; how to read = baseline: with single-dose rifampin; endpoint = AUCinf decrease; result = 15%
SMILES = Cc1ccc(C(=O)N(CCCN)C(c2nc3snc(C)c3c(=O)n2Cc2ccccc2)C(C)C)cc1 (centres unmarked); system = human patients; conditions = intravenous, 18 mg/day; endpoint = grade ≥3 fatigue patients; result = 0%
SMILES = CCN1/C(=C/C(C)=O)Sc2ccc(F)cc21; system = cynomolgus monkey; conditions = oral, 10 mg/kg, 2 h post-dose; how to read = baseline: pre-dose; endpoint = systolic blood pressure change; result = 104 ± 5.8%
SMILES = COc1ccc2c(c1)CN(C(=O)CCN1CCC(Cc3ccccc3)CC1)CC[S@@+]2[O-]; test = telemetry; system = conscious dog; conditions = intravenous, 8 mg/kg, 1 h; endpoint = heart rate; result = 123 ± 46 beats/min
SMILES = CCC(C)n1ncn(-c2ccc(N3CCN(c4ccc(OCC5COC(Cn6cncn6)(c6ccc(Cl)cc6Cl)O5)cc4)CC3)cc2)c1=O (centres unmarked); test = measured: lung abscess; system = healthy human participants; conditions = oral, 200 mg, compound alone cohort; endpoint = adverse event incidence; result = 7%
